Assay results pooled from the literature.
Each numbered part is a random draw from the data of one study; scales do not carry over between parts.

Series 1
Target: RNA binding protein fox-1 homolog 2, RRM domain, GST-SBP tag (RBFOX2, Homo sapiens, UniProt O43251-10, residues 100-194)
Technique: RNA Bind-n-Seq
Form: RNA
Sample: in vitro
Tested at: 365 nM
Notes: natural RNA segment, single round, ends assumed
Relative to: no-protein control
Reading: higher = stronger binding
Endpoint: RBNS enrichment (R)
Shared flanks, not repeated: GGGAGUUCUACAGUCCGACGAUC … UGGAAUUCUCGGGUGCCAA
Residues (chain): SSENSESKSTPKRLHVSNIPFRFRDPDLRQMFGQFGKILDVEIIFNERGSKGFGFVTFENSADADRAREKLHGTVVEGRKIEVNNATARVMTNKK
GCUAUUCUGCCAAAAGACAUUUUCUAGAAUAGUUUUUAAUGGGUUACUGUCCUUACCCUUCAUCCAACAAACUCUGAAGCCAGUCUCUAGCUUACUGCAAGAAAAAGAAG: 0.291
CCAAAGUACUGGGAUUACAGGUUCCCUACUUCAGCAAAGCGUGGCAGCGUGUGAUACAGAUACCACUGCUUUCAGGCUCUUGUCCUUUAAGUCCUGAUCAGCUGUCAGAU: 0.239
CCCUGCUGUAUCAUAAAGCACACACUUAGCGCUCUGGAGCCGGACGGUGGCUCCACCACUUCCGCAGGCCUGGAAACUUCCUUCUCCGGAGGACCUUUUACUAAAAGGUA: 0.616
ACAUCCCUGGGAUGGUGUGCUGUCUGGGCACCACGGUCUCCAUCCUCACUCCUGAGAGAUUUCUGCCUUCUGUGAGUUGGGUUAAAGCUCUGGAAUUAUCUACUAUCCCA: 0.287
GGCCUUGCUGCCAUUCCAGUCACGCACUCCUUGUCCCUGUCUCGCAUGGAGAUCAAAGAAAUAGCAAGCAGGACCCGCAGGGAACUACUGGGCCUCUCGGAUGAAGGUGG: 0.554
GUGUCUAUUAUCACAUUAAUCUCAAAGAGAUUCGAAUGACGGUAAGUGUUCUCAUGAAGCAGGAGGCCCUUGUCGUGGGAUGGCAUUUGGUCUCAGGCAGCACCACACUG: 0.564
GUGUAUUUAAUCUGUAUUAUUCUCUAUUACCCUUGGAACUUUCUUCCCCGUGGGCCUGGGUUACUUUACAUUGAAUAAACACUGUUUGACCCAGUGUUCUGACUUGUACC: 0.428
UUUGAUGCUAGAAAACACAUAUUUUUAAAUGGAAGAAAAAUAAAAAGGCAUUCCCCCUUCAUCCCCCUACCUUAAACAUAUAAUAUUUUAAAGGUCAAAAAAGCAAUCCA: 0.436
GUAACUAAUUUUUAUAUAGUUAAUGUAGGAUAAAGUAGAGUGCAUUAAGACACAAUAUUGUAAUCCCUACUCUAGGCACUUGCCUUUAAACUAUGUUUUUCAGCCCUUCA: 0.422
AAAUUUGCAAGAGAAUUAACACAUACACAGUUUGCCAAAUCAUAUCAAAUCUUCCCAUUGGAGAUAUAUUAGUACACUUAAAAUACCUAAUAUUCUGAUUUUUAUCUAUU: 0.758
GAGGGACCUCGGCUUCUUGAGGCAAAAGGCACUAGUACUUAAAGUACUUUCUGUGGCGUGACCAAUCUUUACUGUUUUUCUAACUACAGAUGUAUGAACAUCCUUGGAGU: 0.449
AUCUCUGUUGAAGGCUUUUGAUCCUUUUGAGAAAUAAAGAUCUGAAAGAAAUGGCAUAAUCUUAAAACUUGGUAAGUUUUUGUGGCUGUGUAAUCUCUUCAUUAUUAUAU: 0.511

Series 2
Target: Interferon regulatory factor 3, full length, phosphomimetic (IRF3, Homo sapiens, UniProt Q14653, residues 1-427, S386D/S396D/S398D/S402D/T404D/S405D)
Sequence of UniProt Q14653 (whole entry, unmodified, looked up): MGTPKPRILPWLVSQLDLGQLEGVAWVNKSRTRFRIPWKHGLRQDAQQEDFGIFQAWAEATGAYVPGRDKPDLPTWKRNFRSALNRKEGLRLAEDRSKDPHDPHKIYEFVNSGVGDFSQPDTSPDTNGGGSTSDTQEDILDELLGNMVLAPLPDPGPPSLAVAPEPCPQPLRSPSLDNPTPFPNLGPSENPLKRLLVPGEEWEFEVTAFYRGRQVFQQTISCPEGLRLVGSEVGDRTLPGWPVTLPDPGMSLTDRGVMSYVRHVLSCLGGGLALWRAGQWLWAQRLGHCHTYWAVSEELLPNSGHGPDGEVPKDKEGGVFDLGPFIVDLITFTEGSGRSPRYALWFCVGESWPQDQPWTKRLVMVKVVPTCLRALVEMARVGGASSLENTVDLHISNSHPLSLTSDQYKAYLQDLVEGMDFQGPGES
Technique: protein-binding microarray
Form: double-stranded DNA, one strand shown
Sample: in vitro
Tested at: 2540 nM top
Notes: 60-bp whole probe
Together with: salmon DNA 0.4 mg/ml
Relative to: random background probes
Reading: higher = stronger binding
Endpoint: fitted relative affinity
Shared flanks, not repeated: GCCTAGCAC … GTCTTGATTCGCTTGACGCTGCTG
TTAGGTTTCGGCACTGGGTTAGTGCTA: 2.49 z-score
GACGGACTGGGTCTCTGGACGTGCTAG: -0.95 z-score
TTAGGTTCACTTTTCCTTTAGTGCTAG: 3.94 z-score
TACGGTTTCGGACTGGGGACGTGCTAG: 4.23 z-score
GACGAACGGAGTTTCGAGACGTGCTAG: 1.41 z-score
TACGGACTGGACACTGGGGACGTGCTA: -0.593 z-score
CTGCCTCACATTGCTAAGACGTGCTAG: -0.0208 z-score
TTAGGTCTCGGTATAGGTTAGTGCTAG: 0.436 z-score
TCATTCTTGCATCTGGGACTGTGCTAG: 1.58 z-score
TTTGGTTCCCTTTTCCTTTAGTGCTAG: 7.03 z-score
ATAGGTTTCGACTTTCGGTTAGTGCTA: 4.42 z-score
TATTTTCTGAATGTCTTCCCGTGCTAG: 2.21 z-score
CACGGTCTCCTTCTCCTGACGTGCTAG: 3.97 z-score
TTAGATATCAGTATCGATCAGTGCTAG: 1.33 z-score
TTAGATACCAGTTTCGATTAGTGCTAG: 3.96 z-score
TTAGGTCTCCTACTGCTTTAGTGCTAG: 0.679 z-score
AACGGACTGGGTCTCGGGACGTGCTAG: -0.701 z-score
TTAGGTATCGACACTGGGTAAGTGCTA: 0.279 z-score
TTAGGTATCGGGACTAGGTTAGTGCTA: 1.15 z-score
TTAGGTCTGCTACTGCTTTAGTGCTAG: -0.766 z-score
TCATTTATGTACTCTCTAACTGTGCTA: 1.05 z-score
GACGATTTCAGACTGTAGACGTGCTAG: 1.09 z-score
TTCTAATTTACTTTGGTTGGGTGCTAG: 0.497 z-score
GACGATTTCAGTCTGGAGACGTGCTAG: 1.17 z-score
TCAGATTTCCATTATTGACTGTGCTAG: 2.75 z-score

Series 3
Target: Histone acetyltransferase KAT6A, both winged helices, GST fusion (KAT6A, Homo sapiens, UniProt Q92794, residues 1-181)
Technique: protein binding microarray
Form: double-stranded DNA, one strand shown
Sample: in vitro
Tested at: not given
Notes: 8-mer, flanks averaged, mean of 2 arrays, mostly near background
Relative to: not given
Reading: higher = stronger binding
Endpoint: E-score
Residues (chain): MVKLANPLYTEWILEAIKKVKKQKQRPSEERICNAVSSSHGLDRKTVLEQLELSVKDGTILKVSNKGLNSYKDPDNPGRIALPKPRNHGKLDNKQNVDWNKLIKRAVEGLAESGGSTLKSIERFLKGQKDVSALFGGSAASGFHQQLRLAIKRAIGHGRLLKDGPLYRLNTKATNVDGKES
CGTGACTC: 0.0198
GGATTACC: -0.00513
GTGATAGA: -0.0531
GTTGGAAA: -0.112
ATGAGCGA: 0.21
AAGTTTTC: -0.135
CGTGCCTC: 0.0623
ACGATTTC: -0.0254
GGAACCCC: 0.0687
ACAACGGT: 0.132
ACCGATGC: 0.13
CGGTGCAG: 0.198
AACCCATT: -0.0869
CATCTCAC: -0.0215
ATATGAGG: -0.212
CGCCCGAG: 0.108
TCCATTCA: -0.225
GTGGGAAA: -0.22
CCCCTTGC: -0.219
ATGTTATC: -0.0676
CCTGCCGC: 0.172
ACCCTTCT: -0.136
AATGCGCA: 0.31
GTACGCAC: 0.188
AGCTCACA: -0.14

Series 4
Target: Sal-like protein 4, full length isoform B (SALL4, Homo sapiens, UniProt Q9UJQ4-2, residues 1-616)
Technique: universal PBM
Form: double-stranded DNA, one strand shown
Sample: in vitro
Tested at: not given
Notes: 8-mer, flanks averaged, mean of replicates
Reading: higher = stronger binding
Endpoint: E-score
ATGTGTTC: -0.00054
AGATAGTA: 0.167
AACACAGT: 0.0577
CATAACTC: 0.252
ACCGACAA: -0.0951
TAAAGAGA: 0.13
CGGGAACC: -0.34
CTGCAGAA: 0.0614
GATTCTAA: 0.143
CTACTTCC: -0.0742
ATTGCCTA: 0.0958
AGTTACAC: 0.101
CGATGGCC: -0.0219
AAGTACTA: 0.235
GAAACTGC: -0.155
ACAGGGTG: -0.111
GTTCGTGA: -0.14
GATATGGC: -0.0955
